Assay results collected from several papers.
Every numbered part comes from another study and shows a few of its results, in no order.

Series 1
Target: Phosphate system positive regulatory protein PHO4, full length, GST-tagged (PHO4, Saccharomyces cerevisiae, UniProt P07270, residues 1-312)
Method: competition protein-binding microarray
Molecule type: double-stranded DNA, one strand shown
Matrix: in vitro
Concentration: 2 µM
Notes: whole 60-bp probe, lowest competitor level
Together with: Cbf1 competitor, 0.05 µM
Reading: higher = stronger binding
Residues (chain): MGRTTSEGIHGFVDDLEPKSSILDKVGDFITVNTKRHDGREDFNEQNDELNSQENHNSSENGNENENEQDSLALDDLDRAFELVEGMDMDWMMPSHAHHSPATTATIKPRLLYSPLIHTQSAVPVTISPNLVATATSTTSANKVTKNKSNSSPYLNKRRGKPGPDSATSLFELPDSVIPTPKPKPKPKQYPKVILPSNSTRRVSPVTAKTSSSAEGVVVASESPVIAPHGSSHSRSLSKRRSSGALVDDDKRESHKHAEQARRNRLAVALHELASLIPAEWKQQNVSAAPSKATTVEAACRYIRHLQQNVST
Oligonucleotide | fluorescence intensity [a.u.]
CTTTCCCGATCTTGACTTGTGGGTGTAGCACATTTGGTCTTGATTCGCTTGACGCTGCTG | 4870
GTCTCCACAGCTTTTGACATGACAATCTCGGCGCAAGTCTTGATTCGCTTGACGCTGCTG | 3790
AAATTACTAAGTTTTCACGTGAGCTACCCCGTATGAGTCTTGATTCGCTTGACGCTGCTG | 9410

Series 2
Target: Histone acetyltransferase KAT6A, both winged helices, GST fusion (KAT6A, Homo sapiens, UniProt Q92794, residues 1-181)
Method: protein binding microarray
Molecule type: double-stranded DNA, one strand shown
Matrix: in vitro
Concentration: not given
Notes: 8-mer, flanks averaged, mean of 2 arrays, mostly near background
Relative to: not given
Reading: higher = stronger binding
Construct (chain): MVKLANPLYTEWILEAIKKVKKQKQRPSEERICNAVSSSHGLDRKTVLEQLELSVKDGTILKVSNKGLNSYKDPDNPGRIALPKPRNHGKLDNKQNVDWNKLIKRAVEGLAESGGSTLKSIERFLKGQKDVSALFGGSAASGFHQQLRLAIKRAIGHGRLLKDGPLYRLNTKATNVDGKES
Oligonucleotide | E-score
ACAGCTAG | -0.116
CTGCCAGA | -0.196
ATTCCGAG | 0.00217
AACCGTCA | 0.0426
CGAGTGCA | 0.0551

Series 3
Target: Sal-like protein 4, full length isoform B (SALL4, Homo sapiens, UniProt Q9UJQ4-2, residues 1-616)
Method: universal PBM
Molecule type: double-stranded DNA, one strand shown
Matrix: in vitro
Concentration: not given
Notes: 8-mer, flanks averaged, mean of replicates
Reading: higher = stronger binding
Construct (chain): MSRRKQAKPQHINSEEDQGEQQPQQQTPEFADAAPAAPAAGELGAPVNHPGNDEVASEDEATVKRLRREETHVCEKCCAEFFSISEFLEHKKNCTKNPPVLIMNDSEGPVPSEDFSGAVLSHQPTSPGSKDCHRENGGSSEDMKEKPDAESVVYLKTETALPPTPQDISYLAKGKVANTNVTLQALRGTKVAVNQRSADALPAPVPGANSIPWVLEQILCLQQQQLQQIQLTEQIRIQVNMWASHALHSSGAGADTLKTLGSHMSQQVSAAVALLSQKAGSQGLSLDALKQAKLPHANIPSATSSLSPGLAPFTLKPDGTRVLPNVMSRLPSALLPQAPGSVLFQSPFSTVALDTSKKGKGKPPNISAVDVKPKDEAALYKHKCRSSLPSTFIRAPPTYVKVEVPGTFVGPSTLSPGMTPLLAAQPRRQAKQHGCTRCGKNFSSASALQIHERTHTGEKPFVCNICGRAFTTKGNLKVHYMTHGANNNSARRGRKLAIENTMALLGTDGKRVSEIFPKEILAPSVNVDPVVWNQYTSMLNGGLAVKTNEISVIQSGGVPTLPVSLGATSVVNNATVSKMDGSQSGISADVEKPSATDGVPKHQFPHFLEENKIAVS
Oligonucleotide | E-score
TGAGCAAA | 0.0285
AGGGTAAG | 0.00648
TCTTGTAA | 0.256
AAGGTTCC | 0.0985

Further values, each from its own experiment
Molecule | target | assay | test system | setting | how to read | measurement | value
PhoQ, residues 284 288 289 292 302 303 QWGLFV | PhoP, residues 12 14 15 18 19 NQAHL (Escherichia coli, UniProt P23836) | Sort-seq, measured: YFP reporter | E. coli | PhoQ-PhoP variant library, together with: 10 µM Mg2+ | relative to: high Mg2+ state, higher = stronger signaling | fold induction | 0.933

For quick reference, copied from above (series 1):
Oligonucleotide | fluorescence intensity [a.u.]
AAATTACTAAGTTTTCACGTGAGCTACCCCGTATGAGTCTTGATTCGCTTGACGCTGCTG | 9410
CTTTCCCGATCTTGACTTGTGGGTGTAGCACATTTGGTCTTGATTCGCTTGACGCTGCTG | 4870
